Measured values gathered from unrelated publications.
Each line is one published result; not all experiments were run side by side.
Target: Mitogen-activated protein kinase kinase kinase 19 (MAP3K19, Homo sapiens, UniProt Q56UN5)

SMILES	assay	setting	scale	measurement	value
COc1cc(Nc2nc(C)cc(-c3cnn4nc(OC)ccc34)n2)cc(C(F)(F)F)c1	binding, competition with immobilised ligand	1 µM	–	remaining binding	75%
C=CC(=O)N1CCCC(n2c(=O)c3ncccc3n(Cc3ccc(Oc4ccccc4)cc3)c2=O)C1 (centres unmarked)	cell-free assay, competition with immobilised ligand	1 µM	–	remaining binding	83%
CCn1cc(C(=O)O)c(=O)c2c(N)c(F)c(NC3CCCCC3)cc21	kinase activity	0.1 µM, together with: ATP at Km	–	inhibition	-0.3%
COc1c(Cl)cccc1Nc1c(-c2ccncc2C#C[C@@]2(C)CCCN2C(=O)/C=C/CN(C)C)[nH]c2c1C(=O)NCC2	binding, competition with immobilised ligand	3 µM	–	remaining binding	67%
Nc1ncc2c(n1)-c1c([nH]c3ccc(C4=CCOCC4)cc13)CCC2	binding, competition with immobilised ligand	1 µM	–	remaining binding	9.4%
Nc1ncc(-c2cc(-c3cnn(CC(F)(F)F)c3)ncc2F)nc1C(=O)NC1CNCC(F)C1 (centres unmarked)	enzyme activity	1 µM	baseline: DMSO control	remaining activity	98%
CNC(=O)C1CCN(c2cc(C)c(F)cc2NC(=O)c2ccc(-c3cc(O)ccc3C)c(C)c2)CC1	binding, competition with immobilised ligand	1 µM	–	remaining binding	91%
Cc1cnc2nc1Nc1cccc(c1)COC/C=C/COCc1cc(ccc1OCCN1CCOCC1)N2	binding, competition with immobilised ligand	0.1 µM	–	remaining binding	3.7%
Cc1c[nH]c2nccc(-c3ccc(C(=O)N[C@@H]4c5c(F)cc(C(F)F)cc5C[C@@H]4O)cn3)c12	binding, competition with immobilised ligand	3 µM	–	remaining binding	4%
COc1cc(Nc2nccc(-c3cnn4nc(OC)ccc34)n2)cc(C(F)(F)F)c1	binding, competition with immobilised ligand	1 µM	–	remaining binding	100%
CCN1CCN(Cc2ccc(NC(=O)c3ccc(C)c(NC(=O)c4cncc(-c5cnn(C)c5)c4)c3)cc2C(F)(F)F)CC1	binding, competition with immobilised ligand	1 µM	–	remaining binding	100%
COc1ccc(O)cc1-c1c[nH]c2ncc(-c3cncc(C(=O)N(C)C)c3)cc12	binding, competition with immobilised ligand	0.2 µM	–	inhibition	9.59%
Cc1ccc(-c2c(/C=C(\C#N)C(=O)NC(C)C)n(CCCO)c3ncnc(N)c23)cc1	cell-free assay, competition with immobilised ligand	1 µM	–	remaining binding	94%
C=CC(=O)N1CCc2ccc(-n3c(=O)ccc4cnc5ccc(-c6cnn(C)c6)cc5c43)cc21	KINOMEscan	1 µM	baseline: DMSO control	remaining binding	100%
CCN1CCN(Cc2ccc(C(=O)Nc3ccc(C)c(NCc4cnc5[nH]ccc5c4OC)c3)cc2C(F)(F)F)CC1	binding, competition with immobilised ligand	1 µM	–	remaining binding	2.8%
CNC1C[S+]2CC[S+]3CC[S+](C1)[Ru-4]321([N]=C=S)[n]2c3ccc(OC)cc3c3c4c(c5cc(F)c[n+]1c5c32)C(=O)NC4=O (centres unmarked)	KinomeScan	0.1 µM	baseline: untreated	remaining binding	41%
CC(C)=CC1OC(C)(C)C2C=C3C(=O)C(Cl)=CC(O)C3C3C(O)C4OC4C(=O)C132 (centres unmarked)	cell-free assay, competition with immobilised ligand	10 µM	–	remaining binding	8.2%
Cc1cc(NC(=O)[C@H](O)c2cc(F)cc(F)c2)ccc1-c1cnc(N)c(C(=O)NC(C)C)c1	binding, competition with immobilised ligand	10 µM	–	remaining binding	5.2%
C=CC(=O)N1Cc2nc(-c3cc(-c4cc(Cl)cnc4Cl)c(F)cc3F)n(-c3ccncn3)c2C1	cell-free assay, inhibitor	1 µM	–	inhibition	-3%
CN1CCN(Cc2ccc(-c3ccc(CO[C@H]4CCC[C@@H]4NC(=O)c4cc(-c5cnn(C)c5)cnc4N)cc3)cc2)CC1	enzyme activity, inhibitor	0.1 µM	–	inhibition	-2%

For quick reference, copied from above:
SMILES	assay	setting	scale	measurement	value
COc1cc(Nc2nccc(-c3cnn4nc(OC)ccc34)n2)cc(C(F)(F)F)c1	binding, competition with immobilised ligand	1 µM	–	remaining binding	100%
